Measured values of several laboratories.
Each numbered part is a random draw from the data of one study; scales do not carry over between parts. Changes are numbered by the printed parent chain.

Set 1 — technique: DHFR PCA, deep sequencing; matrix: yeast; with: (+)-ABA 0.11 µM; relative to: wild-type fitted maximum; direction: higher = stronger binding
Target: ABI1, truncated, D143A, DHFR fusion (Arabidopsis thaliana)
Setting: methotrexate growth selection, single substitutions
Parent: PYL1, truncated, DHFR fusion (Arabidopsis thaliana); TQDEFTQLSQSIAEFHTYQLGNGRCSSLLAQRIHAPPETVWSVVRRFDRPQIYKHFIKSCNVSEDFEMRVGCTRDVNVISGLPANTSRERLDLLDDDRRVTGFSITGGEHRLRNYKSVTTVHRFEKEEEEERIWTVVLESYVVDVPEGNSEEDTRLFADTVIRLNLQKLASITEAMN
Substitution | relative binding score [%]
R88I | 39.8
N165F | 1.39
R24D | 1.8
K54R | 16.4
L8P | 0.121
L28V | 52.9
I105M | 7.15
N149S | 63.2
L112M | 10.5
P146N | 6.98
S87Y | 54.7
L169V | 1.26
L82Q | 17
G107I | -6.65
R111T | 1.14

Set 2 — technique: universal PBM; molecule type: double-stranded DNA, one strand shown; matrix: in vitro; concentration: 600 nM; direction: higher = stronger binding
Target: Sal-like protein 4, full length isoform A (SALL4, Homo sapiens, UniProt Q9UJQ4, residues 1-1053)
Sequence of UniProt Q9UJQ4 (whole entry, looked up): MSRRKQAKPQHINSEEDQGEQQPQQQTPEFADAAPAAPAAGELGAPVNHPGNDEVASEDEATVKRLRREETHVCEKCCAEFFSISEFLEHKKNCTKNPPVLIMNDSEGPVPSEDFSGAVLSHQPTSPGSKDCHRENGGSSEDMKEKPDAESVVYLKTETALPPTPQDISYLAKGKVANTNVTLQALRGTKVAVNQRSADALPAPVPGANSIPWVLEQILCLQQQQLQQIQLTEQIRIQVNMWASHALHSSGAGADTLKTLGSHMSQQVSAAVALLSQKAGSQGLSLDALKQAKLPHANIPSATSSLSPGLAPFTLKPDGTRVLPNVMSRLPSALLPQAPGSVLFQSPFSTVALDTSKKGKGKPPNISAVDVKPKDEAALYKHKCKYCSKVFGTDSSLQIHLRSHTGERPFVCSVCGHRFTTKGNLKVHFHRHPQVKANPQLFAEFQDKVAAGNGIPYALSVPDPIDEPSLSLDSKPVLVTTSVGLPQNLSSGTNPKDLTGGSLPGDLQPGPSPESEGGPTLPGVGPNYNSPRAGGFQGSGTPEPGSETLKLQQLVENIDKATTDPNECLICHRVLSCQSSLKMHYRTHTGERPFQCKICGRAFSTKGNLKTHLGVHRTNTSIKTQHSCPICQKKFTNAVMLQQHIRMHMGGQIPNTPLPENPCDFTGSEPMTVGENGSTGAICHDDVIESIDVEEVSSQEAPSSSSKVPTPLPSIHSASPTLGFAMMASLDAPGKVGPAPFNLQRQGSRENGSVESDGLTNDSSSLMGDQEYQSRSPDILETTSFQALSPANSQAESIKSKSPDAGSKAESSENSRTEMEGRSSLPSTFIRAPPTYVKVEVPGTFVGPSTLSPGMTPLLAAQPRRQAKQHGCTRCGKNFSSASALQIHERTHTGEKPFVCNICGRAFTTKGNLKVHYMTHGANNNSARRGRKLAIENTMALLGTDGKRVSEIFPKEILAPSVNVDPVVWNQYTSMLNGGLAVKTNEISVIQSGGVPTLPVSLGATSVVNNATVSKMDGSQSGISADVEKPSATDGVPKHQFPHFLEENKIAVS
Setting: 8-mer, flanks averaged, mean of replicates
Sequence | E-score
GGATATAA | 0.264
CTTCTTGA | 0.128
AACCGACT | -0.19
ACAGGCTC | -0.172
ATTAAGCG | 0.1
AAGGTGAC | -0.0223
ACCGCTTC | -0.213
GGGGTTGA | -0.177
CGCAAAAG | -0.00559
CCACGGTA | -0.129
AGAATATG | 0.304
ATCGAAGG | 0.117
ACATAACT | 0.305
GTGTAGAA | 0.0622
CTCCTCTC | -0.196
GGCAAGCA | -0.0768
TCCAAAGA | 0.0759
CGAATGTA | 0.101
CACGTTAA | 0.151
GGCTTACC | -0.314
TGCTTAAA | 0.218
CGTGTGTA | 0.149
AATGTGCG | 0.0782
ATGTGAAT | 0.224
AGGGAAAA | 0.215

Set 3 — technique: protein-binding microarray; molecule type: double-stranded DNA, one strand shown; matrix: in vitro; concentration: not given; direction: higher = stronger binding
Target: Hepatocyte nuclear factor 3-beta, forkhead domain (FOXA2, Homo sapiens, UniProt Q9Y261, residues 142-269)
Setting: k-mer, scored over probes, only values ≥0.25
Residues (chain): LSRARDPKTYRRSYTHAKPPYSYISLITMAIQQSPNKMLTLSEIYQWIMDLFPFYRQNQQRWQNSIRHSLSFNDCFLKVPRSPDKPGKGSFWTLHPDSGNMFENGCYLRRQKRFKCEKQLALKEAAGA
Sequence | E-score
CATGGTAA | 0.255
ATTTAATG | 0.289
AACAACAC | 0.346
AAAATAAC | 0.251
TCTGATAA | 0.285
GTTGGTAA | 0.258
GTATACAA | 0.35
GCATACAC | 0.26
ATAAAATA | 0.332
TATAGACA | 0.355
ATACAAAT | 0.355
ACACATGA | 0.323
ACTTATGA | 0.299
CTGTATCC | 0.273
CAAACACC | 0.291
ATCATTAG | 0.3
ATATTATG | 0.388
ACATAAAT | 0.323
TTGATAAA | 0.263
ATAACTTA | 0.272
ATCACACA | 0.33
AAAGTGTA | 0.358
AATGATTG | 0.279
ACTAGCCT | 0.255
ATATCAAC | 0.296

Set 4 — target: CCNB2, cyclin fold, Cln2 fusion (human); technique: yeast growth competition, sequencing; matrix: yeast; setting: weak parent motif; relative to: not given; direction: higher = stronger binding
Parent: E2F7 docking peptide (human); SSAQRRLEIPSGG; partner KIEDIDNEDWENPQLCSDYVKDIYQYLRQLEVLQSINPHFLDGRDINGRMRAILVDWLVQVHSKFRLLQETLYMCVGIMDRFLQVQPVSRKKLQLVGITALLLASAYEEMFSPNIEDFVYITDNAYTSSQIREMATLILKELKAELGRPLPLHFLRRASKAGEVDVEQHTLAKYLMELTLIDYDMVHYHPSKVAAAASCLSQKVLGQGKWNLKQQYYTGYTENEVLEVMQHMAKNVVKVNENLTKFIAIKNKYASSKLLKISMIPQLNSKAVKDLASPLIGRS
Substitution | normalised enrichment score
E8A | 0.27
G13A | 0.181
S11A | -0.0664
R5K I9F | -0.229
R5A L7A | -0.0301
R5K | -0.359
I9F | 0.0434
S1A | 0.401
G12A | 0.0652
R5A | 0.0882

Set 5 — technique: protein binding microarray; molecule type: double-stranded DNA, one strand shown; matrix: in vitro; concentration: not given; relative to: not given; direction: higher = stronger binding
Target: Histone acetyltransferase KAT6A, winged helix 1, GST fusion (KAT6A, Homo sapiens, UniProt Q92794, residues 1-85)
Setting: 8-mer, flanks averaged, mean of 2 arrays, mostly near background
Target sequence (chain): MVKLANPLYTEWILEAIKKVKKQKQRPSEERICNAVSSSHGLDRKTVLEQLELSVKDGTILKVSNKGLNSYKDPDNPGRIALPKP
Sequence | E-score
CAGAATTA | 0.0167
ATACGACG | 0.136
ACCACTGA | -0.196
TAGTTCGA | -0.116
ACCGGGCC | 0.229
CGCTTGAA | 0.0874
ACGCCCTG | 0.118
CGTGTGTC | 0.0417
CGTGTCAC | 0.0616
AACTTCAG | -0.148
AGTGTAAG | -0.0789
TATGCGGA | 0.133
ACTTGTTC | -0.114
AGGGCAGA | -0.176
GGCCGCAA | 0.262
GTCAAGGA | -0.137
ACTTAGGG | -0.196
AGGCCGGG | 0.242
AAGCACGG | 0.212
AAGGAGTA | -0.0487
ACTCTATC | -0.105
ATCTCTTG | -0.278

Set 6 — technique: RNA Bind-n-Seq; molecule type: RNA; matrix: in vitro; concentration: not given; setting: RNA with constant flanks, ends assumed; relative to: input RNA pool; direction: higher = stronger binding
Target: RING finger protein unkempt homolog, zinc fingers 1-6, GST-SBP tag (UNK, Homo sapiens, UniProt Q9C0B0, residues 30-357)
Construct (chain): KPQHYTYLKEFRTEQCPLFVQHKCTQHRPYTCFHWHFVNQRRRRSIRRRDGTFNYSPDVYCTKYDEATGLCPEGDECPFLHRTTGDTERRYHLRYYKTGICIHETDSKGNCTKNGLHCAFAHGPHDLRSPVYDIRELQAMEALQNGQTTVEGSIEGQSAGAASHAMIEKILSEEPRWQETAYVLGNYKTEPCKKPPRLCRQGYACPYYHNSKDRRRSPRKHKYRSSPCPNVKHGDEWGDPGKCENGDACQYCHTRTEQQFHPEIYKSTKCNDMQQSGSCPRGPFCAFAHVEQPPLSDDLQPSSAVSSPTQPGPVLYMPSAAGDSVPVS
Sequence | bound/input enrichment [ratio]
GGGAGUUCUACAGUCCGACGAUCUGGACGAACCAUAAAUUCAACGUGACUGGCACCCCAGAACAAUAUGUACCUUAUUCUACCACCCGAAAGAAGAUUCAGGAGUGGAUCCCACCUUCAACACCUUACAAGUAAAGACAAUGACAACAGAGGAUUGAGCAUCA | 0.464
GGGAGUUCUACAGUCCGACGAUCAAUAGUGGAGAAGAAUUAGAAUCCUACAAGGGACACUUUGGUCCUAUUCACUGUGUGAGAUUCCGUCCUGAUGGAGAACUCUAUGCCAGUGGUUCAGAAGAUGGAACAUUGAGACUAUGGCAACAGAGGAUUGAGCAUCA | 0.305
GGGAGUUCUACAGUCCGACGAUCUCCUAGAGCCCAGUAGUUUUGACUUGUGUGAUGGGGACACAGUACAGCCUGAAGCUUCUUUCCGUCUCAGCACGGAGGGGCAAUGCCACUGGGUAGGACUUCUACUUCUUGUUUUUCCUCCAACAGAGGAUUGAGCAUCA | 0.206
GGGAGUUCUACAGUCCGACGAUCUCACUUGAAAAUAAUGAAACAUUAGAAAGCAUAAUGAAUACCCUAGAGAGUGAAGAAGACUUCCGAAAAUAUUUUUAUUACUUGGAAGGAUCCAAAGAUGCUCUCCUUUGUGGUUUCAGCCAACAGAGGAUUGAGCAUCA | 2.17
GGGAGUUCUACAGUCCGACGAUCUCUGACAUUUCUACGCUUGGACACCUGGUAGUAACCACUCAGGGAGGAUACGUGAAAGUAUCCGACCUUUCAAACUUCGAAAUUUUGGCCAAAGUGGAGCCUCCCAAAAAGGAGGGCACUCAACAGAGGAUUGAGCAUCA | 0.204
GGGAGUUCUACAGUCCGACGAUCAGCCCAAAUCAUGCGGUGGUGCACGGCAACCUGGCUUGUGUGUACUACGAGCAAGGCCUAACCGACCUGGCCAUUGAUACCUACAGGAGAGCUAUCGAACUGCAACCCCAUUUCCCCGAUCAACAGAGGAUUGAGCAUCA | 0.0567
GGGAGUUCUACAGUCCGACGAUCGAUUGAUCUCUGGGCUGGUGAACAUAAUCUCUGUCCCAGUCAGAAAAGGAGAGAGGAAAUCCGCAGAGCGAUUGGUGGAGAAUGAUAUCUGUCAAAAGAAACACUUGGAGAGCACUGAGUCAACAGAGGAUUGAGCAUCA | 0.235
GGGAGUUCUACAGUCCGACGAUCAACAUUUCUACUUUACCAGAGAGUCUUUUAUCAAGUCUUGUGAAACUGAAUAGUUUGACCUCCGCCCGAAAUUGCUUCCAGUUGUAUCCAGUGGGUGGUCCAUCUCAGUUUUCUACCAUCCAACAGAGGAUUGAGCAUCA | 0.214
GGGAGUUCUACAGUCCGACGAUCGACUUGGUACACUUUGAUUUUAUGGACCCACCAGCUCCUGAAACUCUGAUGAGAGCCCCCGAACUUUUGAAUUAUUUGGCUGCUUUAAAUGAUGAUGGAGAUCUGACUGAAUUGGGAUCCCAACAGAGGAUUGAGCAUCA | 0.516
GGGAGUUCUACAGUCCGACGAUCAAAGUAUUGGGCACUAGGAAAUUGAUGCAUGUUGCUUAUGAAGAAUUUGAAAAAGUUAUGGCCGCAUGCUUUGAAGUUUUUCAGACUUGGGAUGAUGAGUAUGAGAAACUUCAGGUAUUGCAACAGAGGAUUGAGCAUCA | 1.17
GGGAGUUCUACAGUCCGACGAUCCGUCCCGUCCGCGUGGUGUGAAGCGGCGCUGGAGGCUUAGUCGUAUAGUCUUCCGUCACUCCGCUGACCAUGGGCAACUUUCUGGGAUCCAGCGAGCGACAUGGUAAAUGAGCUCCAGAACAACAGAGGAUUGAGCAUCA | 0.0704

Set 7 — target: CREM, bZIP domain (human); technique: DHFR protein complementation; matrix: yeast; relative to: wild-type JUN-FOS pair; direction: higher = stronger binding
Setting: single substitutions, most at no-binding floor
Parent: JUN, bZIP domain (human); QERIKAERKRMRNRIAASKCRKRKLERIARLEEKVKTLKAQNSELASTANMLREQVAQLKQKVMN; partner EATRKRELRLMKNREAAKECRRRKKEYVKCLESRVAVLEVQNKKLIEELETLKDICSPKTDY
Substitution | binding fitness [natural log]
E54T | -1.32
N42G | -1.49
V56G | -1.47
V35E | -1.44
E44S | -1.45
S43E | -1.29
T37A | -1.45
L31T | -1.5
V56F | -1.27
T48E | -1.24
L31R | -1.52
A40C | -1.49
Q41H | -1.49
L31A | -1.52
T37G | -1.54
E44H | -1.35
K34E | -1.43
A29L | -1.44
T37L | -1.32
L45H | -1.59
E33A | -1.43
T48K | -1.38
A40Q | -1.42

Single results of other studies
Substance | target | test | test system | setting | how to read | endpoint | value
PhoQ, residues 284 288 289 292 302 303 NLMGRA | PhoP, residues 12 14 15 18 19 GHCSL (Escherichia coli, UniProt P23836) | Sort-seq, item: YFP reporter | E. coli | PhoQ-PhoP variant library, with: 10 µM Mg2+ | relative to: high Mg2+ state, higher = stronger signaling | fold induction | 16.8

Some of these lines once more (set 2):
Sequence | E-score
ATTAAGCG | 0.1
AAGGTGAC | -0.0223
ACCGCTTC | -0.213
GGGGTTGA | -0.177
CGCAAAAG | -0.00559
CCACGGTA | -0.129
AGAATATG | 0.304
ATCGAAGG | 0.117
ACATAACT | 0.305
